Assay results gathered from unrelated publications.
Each line is one published result; not all experiments were run side by side. “And” joins repeats or separate records; there may be more than shown. ± gives the spread as reported.

| Molecule | tested on | test | system | conditions | how to read | quantity | value |
| --- | --- | --- | --- | --- | --- | --- | --- |
| C[n+]1ccc(-c2cc[n+](C)cc2)cc1 | – | – | rat paraquat poisoning | dose not given, event flag 1 | – | survival time | 3 days and 1 days and 6 days and 5 days and 4 days and 2 days |
| Cc1cc(/C=C/C#N)cc(C)c1Nc1nc(Nc2ccc(/C=C/C#N)cc2)ncc1N | HIV-1 | viral replication, single-round infection | RT mutant V106A/F227L | – | – | EC50 | < 0.002 µM |
| COc1ccccc1C(=O)NC1CCCN(Cc2cccc(-c3ccc(C)c(Cl)c3)c2)C1 (stereo not drawn) | SARS-CoV-2 | cytopathic effect | USA_WA1/2020 | round 1, 5-point | – | maximum response | 65.5% |
| TPINLVRDL | human PBMC CD8+ T cells | T cell response | peptide | – | – | positive donors | 1 donors |
| COP(=O)(OC)OC=C(Cl)Cl | rat CYP2D | bufuralol 1'-hydroxylation | liver microsomes | concentration not given | – | Vmax | 0.81 ± 0.06 nmol/min/mg protein |
| C/C=C1\NC(=O)C(C(C)O)NC(=O)C(CCCN)NC(=O)C(CCO)NC(=O)CNC(=O)C(CCN)NC(=O)C(NC(=O)CC(O)CCCCCCCCCCC)COC(=O)C(C(O)CCl)NC(=O)C(C(O)C(=O)O)NC1=O (stereo not drawn) | – | calcein leakage | DOPC/DOPG/CHOL liposomes | concentration not given, added: 20 wt% PEG-8000 | – | fusion time constant | 32 ± 20 min |
| CAQKFNGLTVLPPLL | human CD4 T cells | AIM | peptide | – | – | responding donors | 9% |
| Cc1ccc([N+](=O)[O-])[c]2c1[O][Hg]2 | HeLa | Ebola VLP entry | – | – | – | maximal inhibition | 96% |
| Cc1cc(/C=C/C#N)cc(C)c1Nc1nc(Nc2ccc3cc(C#N)ccc3c2)ncc1N | HIV-1 | viral replication, single-round infection | RT mutant K101E/M184V | – | – | EC50 | < 0.005 µM |
| COCCCNC(=O)C1CCN(Cc2cc3ccccc3n2Cc2cccc(Cl)c2)CC1 | SARS-CoV-2 | cytopathic effect, cell-based CPE | USA_WA1/2020 | round 2, 5-point dilution | – | AC50 | 12.6 µM |
| C[C@@H]1O[C@@H](O[C@H]2CC[C@]3(C=O)[C@H]4CC[C@]5(C)[C@@H](C6=CC(=O)OC6)CC[C@]5(O)[C@@H]4CC[C@]3(O)C2)[C@H](O)[C@H](O)[C@H]1O | human iPSC-derived cardiomyocytes | MyBP-C/MYH ratio, plate-normalised SD score | – | concentration not given, primary screen | direction not given | activity score | 7.1 |
| ARKSAPLIELCVDEA | human CD4 T cells | AIM | peptide | – | – | responding donors | 18% |
| Cc1ccc(-c2cccc(CN3CCCC(NC(=O)c4c(C)noc4C)C3)c2)cc1Cl (stereo not drawn) | SARS-CoV-2 | cytopathic effect, cell-based CPE | USA_WA1/2020 | round 1, 5-point dilution | – | AC50 | 11.2 µM |
| Cc1nc[nH]c1CN1CCc2cc3ccc2C1c1cccc(c1)OCCCNC(=O)c1cc(ccc1O)O3 (stereo not drawn) | Lassa mammarenavirus | viral replication | Huh-7 | concentration not given | – | Emax | 98.4% |
| CC(C)OC(=O)OCOP(=O)(CO[C@H](C)Cn1cnc2c(N)ncnc21)OCOC(=O)OC(C)C | HIV-1 K65R | – | MT4 | – | – | IC50 | 2.25 µM |
| CNC(=O)[C@@H](NC(=O)[C@H](CC(C)C)[C@H](O)C(=O)NO)C(C)(C)C | human fibrinogen | SDS-PAGE | Daboia russelii | concentration not given, unit not given, added: WB venom | relative to: untreated fibrinogen | remaining fibrinogen γ chain | 0.338 |
| Nc1ncnc2c([C@@H]3N[C@H](CO)[C@@H](O)[C@H]3O)c[nH]c12 | Middle East respiratory syndrome-related coronavirus | viral replication | Vero C1008, Jordan N3 | 25 µM | – | inhibition | 31.4% |
| TFKCYGVSPTKLNDL | human CD4 T cells | AIM | peptide | – | – | responding donors | 8% |
| CC(C)Nc1ccnc(NCc2cccnc2Oc2ccc(F)cc2F)n1 | Lassa mammarenavirus | viral replication | Huh-7 | 10 µM, 72 h | – | remaining activity | 34% |
| Cc1cc(/C=C/C#N)cc(C)c1-n1cnc2cnc(Nc3ccc4cc(C#N)ccc4c3)nc21 | HIV-1 | viral replication, single-round infection | RT mutant V106A/L234I | – | – | EC50 | 0.0791 ± 0.0104 µM |
| c1ccc(-c2ncn(CCCc3cccnc3)c2C2CC2)cc1 | Lassa mammarenavirus | viral replication | Huh-7 | 10 µM, 72 h | – | remaining activity | 33% |

| Molecule | tested on | test | system | conditions | how to read | quantity | value |
| --- | --- | --- | --- | --- | --- | --- | --- |
| RENNRVVISSDVLVN | human CD4 T cells | AIM | peptide | – | – | responding donors | 33% |
| O=C(c1ccc(-c2ccccc2)cc1)C1CCCN(C(=O)CCc2ccncc2)C1 (stereo not drawn) | Lassa mammarenavirus | viral replication | Huh-7 | 10 µM, 72 h | – | remaining activity | 45% |
| CCCC(=O)OCSc1ccccc1C(=O)NCCC(N)=O | HIV-1 | viral replication | human PBMC, subtype E 93TH051, CCR5-tropic clinical isolate | – | – | EC50 | 5.91 ± 2.39 µM |
| FIASFRLFARTRSMW | human CD4 T cells | AIM | peptide | – | – | responding donors | 8% |
| N#CC(C#N)=NNc1cccc(Cl)c1 | Escherichia coli | checkerboard | tetracycline-resistant | 42 µM, added: tetracycline | – | FIC index | 0.75 |
| Cn1c(Cn2ccc(C(F)(F)F)c(Oc3cc(Cl)cc(C#N)c3)c2=O)n[nH]c1=O | HIV-1 | viral replication, single-round infection | RT mutant K101P | – | – | EC50 | 0.001 ± 0.0003 µM |
| CCC(C)N(Cc1cccnc1)Cc1c[nH]nc1-c1ccc(F)cc1 (stereo not drawn) | Lassa mammarenavirus | viral replication | Huh-7 | 10 µM, 72 h | – | remaining activity | 40% |
| CN1CCCC2(C1)CN(Cc1cccnc1)c1ccc(C(=O)NCC3CCCCC3)cc12 (stereo not drawn) | SARS-CoV-2 | cytopathic effect | USA_WA1/2020 | retest, 8-point, duplicates | – | efficacy | 124% |
| SFIEDLLFNKVTLAD | human CD4 T cells | AIM | peptide | – | – | responding donors | 17% |
| O=C(Nc1cccc(Cl)c1)C1CCCN(Cc2cccc(-c3ccc(F)cc3F)c2)C1 (stereo not drawn) | SARS-CoV-2 | cytopathic effect | USA_WA1/2020 | retest, 8-point, duplicates | – | maximum response | 7.04% |
| O=C(c1cc(COc2ccc3ncccc3c2)on1)N1CCC(c2ccncc2)CC1 | Lassa mammarenavirus | viral replication | Huh-7 | 10 µM, 72 h | – | remaining activity | 36% |
| IGNYKLNTDHSSSSD | human CD4 T cells | AIM | peptide | – | – | responding donors | 15% |
| O=C1Nc2ccc(Cl)cc2[C@@](C#CC2CC2)(C(F)(F)F)O1 | HIV-1 | viral replication, single-round infection | RT mutant V111A | – | – | EC50 | 0.0002 ± 4e-05 µM |
| CN(C)c1ccc(-c2nc(-c3cccs3)c(-c3cccs3)[nH]2)cc1 | SARS-CoV-2 | cytopathic effect | USA_WA1/2020 | round 1, 5-point | – | efficacy | 45.2% |
| Cc1ccc(-c2cn(CC3CCN(c4cc(C)nc(N)n4)CC3)nn2)cc1 | Lassa mammarenavirus | viral replication | Huh-7 | 10 µM, 72 h | – | remaining activity | 41% |
| CCc1c(C(=O)C(N)=O)c2c(OCC(=O)O)cccc2n1Cc1ccccc1 | C2C12 | – | – | 1 µM, added: PB venom | relative to: venom alone | viability difference | 9.27% |
| Cc1cc(/C=C/C#N)cc(C)c1Nc1ccnc(Nc2ccc(C#N)cc2)n1 | HIV-1 | viral replication, single-round infection | RT mutant G190S | – | – | EC50 | 0.0001 ± 1e-05 µM |
| CN(C)CCNC(=O)c1ccc2c(c1)C1(CCN(CC3CC3)C1)CN2Cc1ccccc1 (stereo not drawn) | SARS-CoV-2 | cytopathic effect, cell-based CPE | USA_WA1/2020 | round 2, 5-point dilution | – | AC50 | 5.01 µM |
| NC(=O)CCNC(=O)c1ccccc1S | HIV-1 | viral replication | human PBMC, group O BCF01, CCR5-tropic clinical isolate | – | – | EC50 | 3.24 ± 4.48 µM |
| COCc1cc(N2CCCC(C(=O)c3ccc(Cl)cc3C)C2)ncn1 (stereo not drawn) | Lassa mammarenavirus | viral replication | Huh-7 | 10 µM, 72 h | – | remaining activity | 54% |
| COc1ccc(Nc2cc(C(=O)NCCCN(C)Cc3ccccc3)c3ccccc3n2)cc1 | SARS-CoV-2 | cytopathic effect, cell-based CPE | USA_WA1/2020 | round 2, 5-point dilution | – | AC50 | 11.2 µM |

Excerpt of the above:
| Molecule | tested on | test | system | conditions | how to read | quantity | value |
| --- | --- | --- | --- | --- | --- | --- | --- |
| CC(C)Nc1ccnc(NCc2cccnc2Oc2ccc(F)cc2F)n1 | Lassa mammarenavirus | viral replication | Huh-7 | 10 µM, 72 h | – | remaining activity | 34% |
| COCc1cc(N2CCCC(C(=O)c3ccc(Cl)cc3C)C2)ncn1 (stereo not drawn) | Lassa mammarenavirus | viral replication | Huh-7 | 10 µM, 72 h | – | remaining activity | 54% |
| TFKCYGVSPTKLNDL | human CD4 T cells | AIM | peptide | – | – | responding donors | 8% |
| CN(C)CCNC(=O)c1ccc2c(c1)C1(CCN(CC3CC3)C1)CN2Cc1ccccc1 (stereo not drawn) | SARS-CoV-2 | cytopathic effect, cell-based CPE | USA_WA1/2020 | round 2, 5-point dilution | – | AC50 | 5.01 µM |
| CN(C)c1ccc(-c2nc(-c3cccs3)c(-c3cccs3)[nH]2)cc1 | SARS-CoV-2 | cytopathic effect | USA_WA1/2020 | round 1, 5-point | – | efficacy | 45.2% |
